Assay results gathered from unrelated publications.
Compare with care: the assays were run in different laboratories. Values joined by “and” are separate records of one study, mostly repeats; a detail may differ.
LYN: Tyrosine-protein kinase Lyn (LYN, Homo sapiens, UniProt P07948)
LYN isoform B: Tyrosine-protein kinase Lyn, isoform B (LYN, Homo sapiens, UniProt P07948)
LYN isoform A: Tyrosine-protein kinase Lyn, isoform A (LYN, Homo sapiens, UniProt P07948)

For `O=C(O)CCC(=O)c1cccc(NS(=O)(=O)c2c[nH]c3ncccc23)c1`, the remaining activity was 93% (LYN; kinase activity, radiometric; 10 µM).
`Nc1ncc(-c2cc(-c3cnn(CC(F)(F)F)c3)ncc2F)nc1C(=O)NC1CNCC(F)C1` (stereo not shown) gave a remaining activity of 98.2% (LYN isoform B; enzyme activity; 1 µM; reference: DMSO control).
With `CNC1C[S+]2CC[S+]3CC[S+](C1)[Ru-4]321([N]=C=S)[n]2c3ccc(OC)cc3c3c4c(c5cc(F)c[n+]1c5c32)C(=O)NC4=O` (stereo not shown) the remaining binding was 96% (LYN; KinomeScan; 0.1 µM; reference: untreated).
For `Cc1ccc(-c2c(/C=C(\C#N)C(=O)NC(C)C)n(CCCO)c3ncnc(N)c23)cc1`, the remaining binding was 93% (LYN; cell-free assay, competition with immobilised ligand; 1 µM).
For `N[C@H]1CC[C@H](Nc2nccc(-c3cccnc3Oc3ccc(NC(=O)NC4CC4)c4ccccc34)n2)CC1`, “log2 LFQ intensity” read 21.2 and 20.6 and 19.4 and 20.4 (LYN; kinobead competition pulldown; HEK293/HCT116 lysate mixture; 10 µM, 1 h, 4 °C; lower = stronger competition).
With `C=CC(=O)N1Cc2nc(-c3cc(-c4cc(Cl)cnc4Cl)c(F)cc3F)n(-c3ccncn3)c2C1` the inhibition was 12.3% (LYN isoform B; kinome panel; 1 µM).
`CCn1cc(C(=O)O)c(=O)c2c(N)c(F)c(NC3CCCCC3)cc21` gave an inhibition of 0.8% (LYN isoform A; kinase activity; 0.1 µM, together with: ATP at Km).
For `NC(=O)[C@@H](O)C[C@H]1CCc2sc3ncnc(O[C@H]4CC[C@H](N5CCOCC5)CC4)c3c21`, the inhibition was 70% (LYN; enzyme activity, inhibitor; 10 µM).
The remaining binding of `CNC(=O)C1CCN(c2cc(C)c(F)cc2NC(=O)c2ccc(-c3cc(O)ccc3C)c(C)c2)CC1` is reported as 3.6% (LYN; binding, competition with immobilised ligand; 1 µM).
`CCN1CCN(Cc2ccc(C(=O)Nc3ccc(C)c(NCc4cnc5[nH]ccc5c4OC)c3)cc2C(F)(F)F)CC1` gave a remaining binding of 0.4% (LYN; binding, competition with immobilised ligand; 1 µM).
For `Cc1cccc(O[C@H]2CCC[C@@H](C(C)CNCc3ccncc3)C2)c1` (relative stereo), the inhibition was 4% (LYN isoform B; kinome profiling; 1 µM).
With `C=CC(=O)Nc1cccc(-c2cnc3[nH]cc(C(=O)NC(C)(C)C)c3n2)c1` the inhibition was -7% (LYN isoform A; enzyme activity, inhibitor; 0.1 µM).
`COc1c(Cl)cccc1Nc1c(-c2ccncc2C#C[C@@]2(C)CCCN2C(=O)/C=C/CN(C)C)[nH]c2c1C(=O)NCC2` gave a remaining binding of 86% (LYN; binding, competition with immobilised ligand; 3 µM).

Some of these lines once more:
`COc1c(Cl)cccc1Nc1c(-c2ccncc2C#C[C@@]2(C)CCCN2C(=O)/C=C/CN(C)C)[nH]c2c1C(=O)NCC2` gave a remaining binding of 86% (LYN; binding, competition with immobilised ligand; 3 µM).
